Results from different studies.
Each line is one published result; not all experiments were run side by side. ± gives the spread as reported.
Caspase-2: Caspase-2 (Homo sapiens, UniProt P42575)
UniProt P42575, sequence (whole entry, looked up): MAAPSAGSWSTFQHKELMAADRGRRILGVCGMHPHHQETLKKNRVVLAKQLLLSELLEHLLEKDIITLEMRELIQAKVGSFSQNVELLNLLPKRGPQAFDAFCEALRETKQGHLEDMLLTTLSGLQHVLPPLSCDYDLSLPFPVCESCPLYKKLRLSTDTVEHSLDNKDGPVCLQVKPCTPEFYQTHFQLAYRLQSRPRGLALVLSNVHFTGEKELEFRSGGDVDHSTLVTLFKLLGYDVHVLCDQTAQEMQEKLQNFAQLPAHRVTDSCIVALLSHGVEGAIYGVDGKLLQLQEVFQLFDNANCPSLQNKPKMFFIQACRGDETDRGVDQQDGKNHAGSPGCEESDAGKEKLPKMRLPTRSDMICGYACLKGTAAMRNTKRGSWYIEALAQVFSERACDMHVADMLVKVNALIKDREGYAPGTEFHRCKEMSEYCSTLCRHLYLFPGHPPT

For `CC(=O)N[C@@H](CC(=O)O)C(=O)N[C@@H](CCCNC(=N)N)C(=O)N[C@H](C(=O)N[C@H](C=O)CC(=O)O)[C@@H](C)O`, the Ki was 1.58 µM (Caspase-2; enzyme activity, inhibitor, fluorescence; pH 6.5).
`NC[C@@H]1O[C@H](O[C@H]2[C@@H](O)[C@H](O[C@@H]3[C@@H](O)[C@H](N)C[C@H](N)[C@H]3O[C@H]3O[C@H](CO)[C@@H](OCCCO)[C@H](O)[C@H]3N)O[C@@H]2CO)[C@H](N)[C@@H](O)[C@@H]1O` gave an IC50 of 374 ± 117 µg/mL (rabbit reticulocyte ribosome; luciferase translation, cell-free translation; rabbit reticulocyte lysate).
With `O=c1cc(-c2ccc(O)c(O)c2)oc2cc(O[C@@H]3O[C@H](CO)[C@@H](O)[C@H](O)[C@H]3O)cc(O)c12` the IC50 was 23.8 ± 0.1 µg/mL (protease; enzyme activity, inhibitor; 10 min, 25 °C, with: casein 1%).
The IC50 of `NC[C@@H]1O[C@H](O[C@H]2[C@@H](O)[C@H](O[C@@H]3[C@@H](O)[C@H](N)C[C@H](N)[C@H]3O[C@H]3O[C@@H]4COCO[C@H]4[C@H](O)[C@H]3N)O[C@@H]2CO)[C@H](N)[C@@H](O)[C@@H]1O` is reported as 130 ± 41.4 µg/mL (rabbit reticulocyte ribosome; luciferase translation, cell-free translation; rabbit reticulocyte lysate).
With `N/C(=N\O)c1ccc2c(c1)Oc1ccccc1N2Cc1cccc(C(=O)NO)c1` the IC50 was 15 ± 1.2 µM (HeLa nuclear HDACs; enzyme activity, inhibitor; with: Boc-Lys(Ac)-AMC).
`CO[C@H]1[C@H](O)[C@@H](N)[C@@H](O[C@H]2[C@H](O[C@@H]3O[C@H](CO)[C@@H](O[C@H]4O[C@@H](CN)[C@@H](O)[C@H](O)[C@H]4N)[C@H]3O)[C@@H](O)[C@H](N)C[C@@H]2N)O[C@@H]1CO` has an IC50 of 40.9 ± 8.39 µg/mL (rabbit reticulocyte ribosome; luciferase translation, cell-free translation; rabbit reticulocyte lysate).
With `O=C(NO)c1ccc(CN2c3ccccc3Oc3ccc(C(=O)Nc4ccc(C(=O)c5ccccc5)cc4)cc32)cc1` the IC50 was 0.54 µM (HeLa nuclear HDACs; enzyme activity, inhibitor; with: Boc-Lys(Ac)-AMC).
`CN[C@H]1[C@@H](O)[C@@H](NC)C[C@H]2O[C@@H]3O[C@H](C)CC(=O)[C@]3(O)O[C@H]12` has an IC50 of greater than 60 µg/mL (Mycolicibacterium smegmatis 70S ribosome; translation, luciferase reporter).
`COCOC[C@H]1O[C@H](O[C@H]2[C@H](O[C@@H]3O[C@H](CO)[C@@H](O[C@H]4O[C@@H](CN)[C@@H](O)[C@H](O)[C@H]4N)[C@H]3O)[C@@H](O)[C@H](N)C[C@@H]2N)[C@H](N)[C@@H](O)[C@@H]1O` has an IC50 of 91.2 ± 18.7 µg/mL (rabbit reticulocyte ribosome; luciferase translation, cell-free translation; rabbit reticulocyte lysate).
`CN[C@@H]1[C@H](O)[C@H](NC)[C@H]2O[C@]3(O)[C@H](O[C@@H]2[C@H]1O)O[C@H](C)C[C@H]3NC(=O)Cc1ccccn1` gave an IC50 of 0.89 µg/mL (Mycolicibacterium smegmatis 70S ribosome; translation, luciferase reporter).
With `O=C(/C=C/c1ccc(Cl)cc1)N1CCC2(CC1)CN(Cc1ccc(Cl)c(Cl)c1)C(=O)O2` the IC50 was 0.008 µM (human EBI2; ERK1/2 phosphorylation, antagonist; CHO expressing EBI2; with: 7α,25-OHC 1 nM).
The growth percent of `COc1cc(CNC(=O)C[C@H](C)CCC=C(C)C)ccc1OCc1cn(-c2ccc(Br)cc2)nn1` is reported as 56.4% (ACHN; SRB; 10 µM, 48 h).
`O=C1c2ccc3c4cccc5cccc(c6ccc(c2c36)C(=O)N1CCN1CCCCC1)c54` gave an IC50 of 8.6 ± 0.6 µM (human telomerase; modified TRAP; cell-free).
For `CC(=O)N[C@H](C(=O)NCC(=O)N[C@@H](CCCCN)C(=O)N[C@H](C=O)CC(=O)O)[C@@H](C)O`, the Ki was 11 µM (Caspase-2; enzyme activity, inhibitor, fluorescence; pH 6.5).
The IC50 of `CCN(CC)CCN1C(=O)c2ccc3c4cccc5c(N6CCNCC6)ccc(c6ccc(c2c36)C1=O)c54` is reported as 6.7 ± 0.3 µM (human telomerase; modified TRAP; cell-free).
`COCO[C@H]1[C@H](O)[C@@H](N)[C@@H](O[C@H]2[C@H](O[C@@H]3O[C@H](CO)[C@@H](O[C@H]4O[C@@H](CN)[C@@H](O)[C@H](O)[C@H]4N)[C@H]3O)[C@@H](O)[C@H](N)C[C@@H]2N)O[C@@H]1CO` gave an IC50 of 43.1 ± 1.88 µg/mL (rabbit reticulocyte ribosome; luciferase translation, cell-free translation; rabbit reticulocyte lysate).
With `Cc1cccc(C)c1NC(=O)[C@@H]1CCN(Cc2ccccc2)C1` the IC50 was 1.8 ± 0.1 µM (Nav1.4, Pelophylax lessonae; sodium current, use-dependent blocker, vaseline gap voltage clamp; skeletal muscle fibres; 10 Hz pulse trains).
The Gd retention of `N=C(N)NCCC[C@H](NC(=O)[C@H](CCCNC(=N)N)NC(=O)[C@H](CCCNC(=N)N)NC(=O)[C@H](CCCNC(=N)N)NC(=O)[C@H](CCCNC(=N)N)NC(=O)[C@H](CCCNC(=N)N)NC(=O)[C@H](CCCNC(=N)N)NC(=O)[C@H](CCCNC(=N)N)NC(=O)CN1CCN(CC(=O)O)CCN(CC(=O)O)CCN(CC(=O)O)CC1)C(=O)O` is reported as 15% (NIH/3T3; 0.10 mM, 4 h; reference: uptake).
`CCN(CC)CCN1C(=O)c2ccc3c4cccc5c(NCCN)ccc(c6ccc(c2c36)C1=O)c54` has an IC50 of 4.1 ± 0.5 µM (human telomerase; modified TRAP; cell-free).
The IC50 of `Cc1cccc(C)c1NC(=O)[C@@H]1CCCN1Cc1ccccc1` is reported as 31.3 ± 5.7 µM (Nav1.4, Pelophylax lessonae; sodium current, use-dependent blocker, vaseline gap voltage clamp; skeletal muscle fibres; 10 Hz pulse trains).
